Results gathered from unrelated publications.
“And” joins repeats or separate records; there may be more than shown. Numbers after ± are the reported error.
MAPK8: Mitogen-activated protein kinase 8 (MAPK8, Homo sapiens, UniProt P45983)
Dipeptidyl peptidase 8: Dipeptidyl peptidase 8 (Homo sapiens, UniProt Q6V1X1)
STING1 H232R: Stimulator of interferon genes protein (STING1, Homo sapiens, UniProt Q86WV6, H232R)

| Structure (SMILES) | tested on | test | test system | setting | how to read | quantity | value |
| --- | --- | --- | --- | --- | --- | --- | --- |
| N[C@H]1CC[C@H](Nc2nccc(-c3cccnc3Oc3ccc(NC(=O)NC4CC4)c4ccccc34)n2)CC1 | Kinase D-interacting substrate of 220 kDa (KIDINS220, Homo sapiens, UniProt Q9ULH0) | kinobead competition pulldown, measured: KIDINS220 | HEK293/HCT116 lysate mixture | 10 µM, 1 h, 4 °C | lower = stronger competition | log2 LFQ intensity | 20.3 and 19 and 17.8 and 17.1 |
| CC(=O)N[C@H]1[C@H]([C@H](O)[C@H](O)CNC(=O)c2ccc(-c3ccccc3)cc2)O[C@@](OCc2cn(CC(O)Cn3c([N+](=O)[O-])cnc3C)nn2)(C(=O)O)C[C@@H]1O (stereo partly shown) | CD22 (Homo sapiens, UniProt P20273) | isothermal titration calorimetry | – | concentration not given | – | binding stoichiometry | 1.28 ± 0.07 |
| C=C1CC2(C(=O)OC)C=C(C(=O)OC(C)(C)C)C(=O)C1C2 (stereo not shown) | MAPK8 | D-peptide binding, inhibitor, FP peptide displacement | – | 3.906 µM | lower is stronger displacement | fraction bound | 0.912 |
| O=C1c2sc(-c3ccc(N4CCC(F)C4)nc3F)nc2CCN1c1cccnc1 (stereo not shown) | TAR DNA-binding protein 43, aggregated (TARDBP, Homo sapiens, UniProt Q13148) | saturation autoradiography | human, FTLD-TDP type A brain sections | 6.25 nM | – | specific binding | 54.7 nM |
| COC(=O)[C@]1(Cc2ccccc2)C=C(C(=O)OC(C)(C)C)C(=O)CC1 | MAPK8 | D-peptide binding, inhibitor, FP peptide displacement | – | 250 µM | lower is stronger displacement | fraction bound | -0.0646 |
| CCCCCC=CC=C1C(=O)C=CC1CC=CCCCC(=O)O (stereo not shown) | TBC1 domain family member 13 (TBC1D13, Homo sapiens, UniProt Q9NVG8) | competitive isoTOP-ABPP | proteome, soluble, MDA-MB-231 | 100 µM, 60 min, added: iodoacetamide probe | baseline: DMSO over compound-treated, higher = stronger cysteine blockade | isoTOP-ABPP competition ratio | 6.1 |
| CCCCCCCC/C=C\CCCCCCCC(=O)OCC(O)COP(=O)(O)O (stereo not shown) | LPAR1 (Homo sapiens, UniProt Q92633) | G-protein dissociation, agonist, NanoBiT | HEK-293T | 1 nM, wild-type receptor | baseline: baseline luminescence | fold change | 0.972 and 0.964 and 0.963 and 0.979 and 0.935 and 0.944 |
| CCCCc1ccc(C(=O)N2c3ccc(F)cc3[C@@H](Nc3ccccc3)C[C@H]2C)cc1 | Ecdysone receptor (Aedes albopictus, UniProt Q9U3Y4) | ligand binding, inhibitor | intact cells | added: [3H]ponasterone A | direction not given | pIC50 Z-score | -1.12 |
| CN(C)c1ccc(-n2cc(COC(=O)[C@@]3(C)C=C(C(=O)OC(C)(C)C)C(=O)CC3)nn2)cc1 | MAPK8 | D-peptide binding, inhibitor, FP peptide displacement | – | 12.5 µM | lower is stronger displacement | fraction bound | 0.907 |
| O=C(c1cccnc1)N1CCN(CC(OCc2ccc3ccccc3c2)c2ccc(Cl)cc2Cl)CC1 (stereo not shown) | ULK1 (Homo sapiens, UniProt O75385) | enzyme activity, inhibitor, ADP detection | – | 0.1 µM | – | activity vs control | 117% |
| CC(C)Oc1cc(Cl)ccc1CNc1cc(-c2ccccc2)nc2ncnn12 | GPR3 (Homo sapiens, UniProt P46089, L136A) | cAMP level, cAMP GloSensor | – | 10 µM | higher = more cAMP | cAMP luminescence | 22500 a.u. and 16300 a.u. and 17500 a.u. and 18800 a.u. |
| CCOC(=O)C(CC)(CCCSCCOCCOCCN=[N+]=[N-])NC(=O)c1ccc(C2CC2)c(Cc2ccc(F)cc2)n1 (stereo not shown) | Cnr2 (Mus musculus, UniProt P47936) | cAMP, agonist | – | – | – | Emax | 93% |
| Cc1ncsc1-c1ccc(C(C)NC(=O)C2CC(O)CN2C(=O)C(NC(=O)CCCCCCCCCCN2CCCC(Nc3ncc(Cl)c(Nc4ccccc4S(=O)(=O)C(C)C)n3)C2)C(C)(C)C)cc1 (stereo not shown) | 22Rv1 | RNA-seq, measured: NECTIN4 mRNA | – | concentration not given | baseline: DMSO | log2 fold change | -1.87 |
| CC(C=CC=C(C)C=CC1=C(C)CCCC1(C)C)=CC=O | Rhodopsin (RHO, Homo sapiens, UniProt P08100, T17M) | immunostaining, measured: opsin | COS-7 transfected | 20.00 µM, unit not given | baseline: surface over total stained cells | plasma membrane localization | 0.78 |
| CC1(Cc2ccccc2)C(=O)N(c2cccc(CN3CCN(Cc4ccc(Br)cc4)CC3)c2)C1=O.O=C(O)C(F)(F)F | Dipeptidyl peptidase 8 | inhibitor | – | added: GP-AMC substrate | baseline: Ki' DPP9 over Ki' DPP8 | selectivity ratio | 9 |
| CC[C@H](C)[C@@H](C(=O)N[C@@H](CC(C)C)C(=O)N[C@@H](CO)C(=O)N[C@@H](CO)C(=O)N[C@H](C(=O)N[C@@H](CC(N)=O)C(=O)N[C@H](C(=O)NCC(=O)N[C@@H](CO)C(=O)N[C@@H](CC(N)=O)C(=O)N[C@H](C(=O)N1C[C@H](O)C[C@H]1C(N)=O)[C@@H](C)O)C(C)C)[C@@H](C)O)N(C)C(=O)[C@H](C)NC(=O)CN(C)C(=O)[C@H](Cc1ccccc1)NC(=O)[C@H](CC(N)=O)NC(=O)[C@H](CC(N)=O)NC(=O)[C@H](CO)NC(=O)[C@H](CO)NC(=O)[C@H](CCCNC(=N)N)NC(=O)[C@H](Cc1c[nH]cn1)NC(=O)[C@H](CC(C)C)NC(=O)[C@H](Cc1ccccc1)NC(=O)[C@H](CCC(=O)O)NC(=O)[C@H](C)NC(=O)[C@H](CC(C)C)NC(=O)[C@H](CCCNC(=N)N)NC(=O)[C@H](CCC(N)=O)NC(=O)[C@@H](NC(=O)[C@H](C)NC(=O)[C@@H]1CSSC[C@H](NC(=O)[C@H](CCCNC(=N)N)NC(=O)CC[C@H](NC(=O)CCCCCCCCCCCCCCCCCCC(=O)O)C(=O)O)C(=O)N[C@@H](CC(N)=O)C(=O)N[C@@H]([C@@H](C)O)C(=O)N[C@@H](C)C(=O)N[C@@H]([C@@H](C)O)C(=O)N1)[C@@H](C)O | Amylin receptor AMY3; CALCR/RAMP3 (Homo sapiens, UniProt O60896+P30988) | cAMP accumulation, agonist | COS-7 | – | baseline: over native Tyr37 analogue | potency increase | 3 to 4 fold |

| Structure (SMILES) | tested on | test | test system | setting | how to read | quantity | value |
| --- | --- | --- | --- | --- | --- | --- | --- |
| CCCCCC(O)/C=C/C=O (stereo not shown) | Elongation factor 2, Cys41 (EEF2, Homo sapiens, UniProt P13639) | competitive isoTOP-ABPP | proteome, soluble, MDA-MB-231 | 100 µM, 60 min, added: iodoacetamide probe | baseline: DMSO over compound-treated, higher = stronger cysteine blockade | isoTOP-ABPP competition ratio | 8.8 |
| COc1ccccc1-c1ccncc1C(=O)Nc1nnc(OCc2ccc(Cl)cc2)s1 | Bifunctional 3'-5' exonuclease/ATP-dependent helicase WRN, residues 500-946 (WRN, Homo sapiens, UniProt Q14191) | ATPase activity, ADP-Glo | – | 0.24 µM | baseline: 0 µM cpd | remaining activity | 99% |
| Cc1cc(C)cc(COc2cc3c(cc2OCc2cc(C)cc(C)c2)C2CC(O)(Cc4cn(CCOCCOCCNC(=O)CCCCC5SCC6NC(=O)NC65)nn4)CC(C)N2CC3)c1 (stereo not shown) | Non-selective voltage-gated ion channel VDAC2 (Homo sapiens, UniProt P45880) | biotinylated probe pull-down, measured: VDAC2 | – | 10 µM probe | baseline: heavy over light | SILAC ratio | 1.93 |
| O=C(NCC[C@H](NC(=O)c1cccc2ccccc12)c1nc2ccccc2[nH]1)c1ccc([N+](=O)[O-])o1 | STING1 H232R | reporter gene, inhibitor | THP1-Dual KI-hSTING-R232 | 24 h, 1 h preincubation, added: diABZI 500 nM | – | EC50 | 24 µM |
| COC1CN([C@H]2CC[C@H]([C@@]3(C)Oc4c(Cl)cc(C(=O)NCc5c(SC)cc(C)[nH]c5=O)c(C)c4O3)CC2)C1 | – | RNA-seq, measured: SPTBN4 | human, whole blood | dose not given, 24 h | baseline: pretreatment baseline | log2 fold change | 2.15 |
| CC[C@H](C)[C@@H]1NC(=O)[C@H](Cc2ccc(O)cc2)NC(=O)[C@H](Cc2ccccc2)NC(=O)[C@H](Cc2ccccc2)NC(=O)[C@H](Cc2ccccc2)NC(=O)CSC[C@@H](C(=O)N[C@@H](Cc2c[nH]cn2)C(N)=O)NC(=O)[C@H](CC(N)=O)NC(=O)[C@H](Cc2c[nH]c3ccccc23)NC1=O | STING1 H232R | thermal stability, DSF | – | 50 µM | – | ΔTm | 7.07 °C |
| O=C(O)c1cccc(CN2Cc3cccc(n3)CN(Cc3cccc(C(=O)O)n3)Cc3cccc(n3)C2)n1 | Albumin (ALB, Bos taurus, UniProt P02769) | binding | HEPES buffer | 0.67 mM albumin, 1.4 T | – | r1 relaxivity | 17.2 mM⁻¹ s⁻¹ |
| O=[N+]([O-])c1cc(Br)cc([N+](=O)[O-])c1NS(=O)(=O)c1ccc(Br)cc1 | PYL10, with HAB1 (Arabidopsis thaliana, UniProt Q8H1R0) | antagonist | – | 40 µM, added: ABA 5 µM | higher = more HAB1 activity | HAB1 phosphatase activity | 0.084 a.u. and 0.089 a.u. and 0.085 a.u. |
| CCCC1(CC)C(=O)N(c2cccc(CN3CCN(Cc4ccc(Br)cc4)CC3)c2)C1=O | Dipeptidyl peptidase 8 | enzyme activity, inhibitor | – | 5 µM | – | activity vs control | < 5% |
| C#Cc1ccc2nc([C@H](CCNC(=N)c3ccc([N+](=O)[O-])o3)NC(=O)c3noc(-c4cc(F)ccc4F)n3)[nH]c2c1 | STING1 H232R | reporter gene, inhibitor | THP1-Dual KI-hSTING-R232 | 24 h, 1 h preincubation, added: diABZI 500 nM | – | EC50 | 1.5 ± 0.1 µM |
| O=C(NC[C@@H](Cc1ccc(F)cc1)N1CCC(O)(C(F)(F)F)CC1)C1(c2ccc(Cl)cc2)CCCC1 | TRPA1 (Homo sapiens, UniProt O75762, F909A) | – | – | concentration not given | – | activity | inactive |
| CSc1cc(C)[nH]c(=O)c1CNC(=O)c1c(C)n(C(C)C2CCC(NC3(C)COC3)CC2)c2ccccc12 (stereo not shown) | EZH2 (Homo sapiens, UniProt Q15910) | binding, jump dilution | – | added: H3K27me3 activating peptide | – | residence time | 5340 min |
| COc1ncc2nc(C)n(Cc3ncc(S(N)(=O)=O)cc3F)c2c1-c1ccccc1 | EDNRA (Homo sapiens, UniProt P25101) | agonist, cell-based | – | 10 µM | – | activation | 12.3% |
| Cn1cc(-c2cc(N3CCCCS3(=O)=O)ccc2N[C@H]2CC[C@H](C)CC2)c2cc[nH]c2c1=O (stereo in doubt) | Bromodomain-containing protein 2, BD2 (BRD2, Homo sapiens, UniProt P25440) | binding, competition with immobilised ligand | – | 1 µM | – | remaining binding | 0% |
| CC(C)[C@@H]1NC(=O)[C@H](Cc2ccccc2)NC(=O)CSC[C@@H](C(N)=O)NC(=O)[C@H](CCC(=O)O)NC(=O)[C@H](CO)NC(=O)[C@H](Cc2c[nH]c3cccc(Cl)c23)NC(=O)[C@H](C2CCCCC2)NC(=O)[C@H](C(C)C)NC(=O)[C@H](Cc2ccc(O)cc2)NC(=O)[C@H](CC(=O)O)NC(=O)[C@H](Cc2c[nH]c3ccccc23)NC(=O)[C@H](Cc2ccc(N)nc2)NC(=O)[C@H](Cc2c[nH]c3ccc(Cl)cc23)NC(=O)[C@H](CCC(=O)O)NC1=O | Interleukin-1 receptor-like 2 (IL1RL2, Homo sapiens, UniProt Q9HB29) | reporter gene (SEAP), inhibitor, HEK-Blue IL-36R reporter | HEK-Blue IL-36R cells | 1.23 µM, 6 h, added: IL-36β 0.1 ng/mL | – | remaining activity | 15.9% |
